Published values collected from several papers.
A part holds a random share of what one study measured. Changes are numbered by the printed parent chain.

Series 1
Target: ABI1, truncated, D143A, DHFR fusion (Arabidopsis thaliana)
Method: DHFR PCA, deep sequencing
Medium: yeast
Setting: methotrexate growth selection, single substitutions
With: (+)-ABA 2500 µM
Baseline: wild-type fitted maximum
Direction: higher = stronger binding
Starting sequence: PYL1, truncated, DHFR fusion (Arabidopsis thaliana); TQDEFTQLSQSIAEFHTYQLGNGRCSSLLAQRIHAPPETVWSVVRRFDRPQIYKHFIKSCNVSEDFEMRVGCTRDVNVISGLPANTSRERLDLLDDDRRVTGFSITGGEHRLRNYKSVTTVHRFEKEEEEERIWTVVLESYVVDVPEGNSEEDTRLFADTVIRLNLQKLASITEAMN
Change | relative binding score [%]
N77Y | 99.6
N61R | 99.5
T120M | 51.9
E64T | 91.2
S63K | 99.4
Y53D | 12.1
K54W | -1.77

Series 2
Target: Sal-like protein 4, full length isoform A (SALL4, Homo sapiens, UniProt Q9UJQ4, residues 1-1053)
Sequence of UniProt Q9UJQ4 (whole entry, looked up): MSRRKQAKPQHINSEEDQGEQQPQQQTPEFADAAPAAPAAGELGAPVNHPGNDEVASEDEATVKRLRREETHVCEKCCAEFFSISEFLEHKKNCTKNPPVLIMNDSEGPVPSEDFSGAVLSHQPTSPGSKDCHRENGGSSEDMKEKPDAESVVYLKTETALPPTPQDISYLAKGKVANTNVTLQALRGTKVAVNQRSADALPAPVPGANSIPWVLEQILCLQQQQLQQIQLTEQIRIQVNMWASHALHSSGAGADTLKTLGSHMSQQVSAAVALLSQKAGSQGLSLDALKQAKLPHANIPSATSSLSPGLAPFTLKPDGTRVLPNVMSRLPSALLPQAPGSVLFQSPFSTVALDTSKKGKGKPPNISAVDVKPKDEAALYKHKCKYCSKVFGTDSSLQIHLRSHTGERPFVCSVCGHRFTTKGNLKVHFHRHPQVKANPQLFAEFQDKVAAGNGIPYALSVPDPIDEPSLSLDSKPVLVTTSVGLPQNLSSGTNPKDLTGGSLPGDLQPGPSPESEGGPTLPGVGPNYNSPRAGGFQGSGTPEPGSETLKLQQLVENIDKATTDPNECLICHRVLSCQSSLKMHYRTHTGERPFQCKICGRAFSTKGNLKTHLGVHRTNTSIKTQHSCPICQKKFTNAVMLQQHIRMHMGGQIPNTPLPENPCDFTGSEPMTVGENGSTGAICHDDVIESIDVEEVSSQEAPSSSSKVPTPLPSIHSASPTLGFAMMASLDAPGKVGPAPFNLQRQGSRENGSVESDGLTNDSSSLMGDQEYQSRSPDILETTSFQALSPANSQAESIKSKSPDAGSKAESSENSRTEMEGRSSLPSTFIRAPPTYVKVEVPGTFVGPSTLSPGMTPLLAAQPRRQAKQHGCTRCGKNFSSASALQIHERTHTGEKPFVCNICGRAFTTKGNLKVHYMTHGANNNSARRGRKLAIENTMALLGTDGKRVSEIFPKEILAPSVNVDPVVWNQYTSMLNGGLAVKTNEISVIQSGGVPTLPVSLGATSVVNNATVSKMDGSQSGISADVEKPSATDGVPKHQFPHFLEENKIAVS
Method: universal PBM
Form: double-stranded DNA, one strand shown
Medium: in vitro
Concentration: 600 nM
Setting: 8-mer, flanks averaged, mean of replicates
Direction: higher = stronger binding
Sequence | E-score
GCAGATCA | -0.162
ACACACCG | -0.164
ACGCGCGG | -0.349
TCGGGCAA | -0.102
ACGGGTCA | -0.285
TAGGTAAA | 0.277
AAAAGGCG | -0.104
GGGGAAAA | 0.0215
AGAGACTG | -0.268
CTACAGCC | -0.186

Series 3
Target: RING finger protein unkempt homolog, zinc fingers 1-6, GST-SBP tag (UNK, Homo sapiens, UniProt Q9C0B0, residues 30-357)
Sequence of UniProt Q9C0B0 (30-357, looked up): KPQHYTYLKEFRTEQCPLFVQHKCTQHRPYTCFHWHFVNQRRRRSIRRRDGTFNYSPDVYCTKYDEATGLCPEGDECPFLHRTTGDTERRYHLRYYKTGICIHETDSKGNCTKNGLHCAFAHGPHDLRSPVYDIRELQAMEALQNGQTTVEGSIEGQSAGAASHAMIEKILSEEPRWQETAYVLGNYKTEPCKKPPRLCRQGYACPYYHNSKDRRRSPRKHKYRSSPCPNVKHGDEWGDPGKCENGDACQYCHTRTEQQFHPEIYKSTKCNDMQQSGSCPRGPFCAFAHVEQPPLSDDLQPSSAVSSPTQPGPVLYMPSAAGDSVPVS
Method: RNA Bind-n-Seq
Form: RNA
Medium: in vitro
Concentration: not given
Setting: RNA with constant flanks, human and mouse sites, ends assumed
Baseline: input RNA pool
Direction: higher = stronger binding
Constant ends, left off below: GGGAGUUCUACAGUCCGACGAUC … CAACAGAGGAUUGAGCAUCA
Sequence | bound/input enrichment [ratio]
CAGCAGUCAUCUCUCGGUAGGGAUUCACAGGGUCAUGGGCGUGACCUGUCUGCAGCAGGAAUAGGCCUUCUUGCUGCUGCUACCCAGUCUUUAAGUAUGCCAGCAUCUCUUGGAAGGAUG | 0.0723
AUAAAAUGAAACUAGGGCUGAGCUAGUUAGCCCUCACUAGCCAAACUGAAACUCUAUGCAACAUUAAAAGAAGAGAUCCAUCAUGUAGCUUGUGACACUUUUAUUUUAUUAGUCACCGGG | 0.345
UUUCUCGGGAUUAUUGCUCUUCUGUCUAUAAAUUUUGAAUGAUACUGUGCCUUAAUUGGUUUUCAUAGUUUAAGUGUGUAUCAUUAUCAAAGUUGAUUAAUUUGGCUUCAUAGUAUAAUG | 1.85
GCGAUAUCAAACAGAACUAUCUGGAAGCAUUUACUUCCAAUCCAAAACGGAGCUUUGUCUAGUGCUUGUCACAAAUCCACAUACUCUUCUCUUCCGGAUGACUACAAUUGCCAGGUGGAC | 0.225
UCUUUUGAGGUGAUGGUGCUGGCCGAGCUGUUUCUGGAGAUGCUCCAGAGGGAUUUUGGCUAUAGAGUUUAUAAGAUGCUACUGAGCCUUCCUGAAAAGGUCGUGUCCCCACCUGAACCU | 0.927
UAUCUGGCUAUUUUGGCUAUUUACAACACUAAUUUCAUUAUUUUUAUCUGUAAGCAUUAUUAAUACAUCUUUACCAAAACCUGAGCAAUACAAUAUUUUCUUUAUAUGUUAUAUGCCUUU | 11.6
UUCAGCCCUUUCACCUAACAGGCCCAUAUUCGGGCCUUUGCCUGACCAAAGAGAAGAACCGUAUGUUCCCUUUACUGCACGGCCUUUAUCCUUCUGGGCCCCUGGGGCGGGGACCUGAGC | 0.0787
CCAUUUGCCAGCCUAAUGCGCAUGCUUUCUGCCUCUGGUAACAGGAGUGAGUGAGCCCCUCAGACCUGCACUCUGGGUGUCUCCUGCUUUCAAAGGUUCUUAAUAGUGAAUGCUUUAAAA | 0.305

Mixed results
Molecule | target | assay | system | setting | scale | measurement | value
PhoQ, residues 284 288 289 292 302 303 AGHLVA | PhoP, residues 12 14 15 18 19 TPWLV (Escherichia coli, UniProt P23836) | Sort-seq, measured: YFP reporter | E. coli | PhoQ-PhoP variant library, with: 10 µM Mg2+ | baseline: high Mg2+ state, higher = stronger signaling | fold induction | 1.33

Some of these lines once more (series 2):
Sequence | E-score
GCAGATCA | -0.162
ACACACCG | -0.164
ACGCGCGG | -0.349
